Assay results of several laboratories.
A part holds a random share of what one study measured.

Study 1
Target: Prothrombin, mature alpha-thrombin (F2, Homo sapiens, UniProt P00734)
Method: aptamer microarray, sandwich
Form: DNA with 2'F-ANA
Medium: in vitro
Tested at: 200 nM
Notes: whole 15-mer aptamer, many near background
With: Cy3 exosite-II aptamer, 400 nM
Reading: higher = stronger binding
Sequence: GGTTGGTGTGGTTGG
| Modification | mean fluorescence intensity |
| --- | --- |
| 2'F-ANA at 1 2 3 7 10 11 13 14 15 | 53 a.u. |
| 2'F-ANA at 1 2 3 4 6 7 8 11 14 | 101 a.u. |
| 2'F-ANA at 5 9 11 12 13 14 15 | 46.7 a.u. |
| 2'F-ANA at 2 3 4 6 8 11 14 15 | 249 a.u. |
| 2'F-ANA at 1 2 3 6 7 8 9 13 | 155 a.u. |
| 2'F-ANA at 5 8 11 12 13 | 110 a.u. |
| 2'F-ANA at 1 3 5 6 7 11 12 13 | 76.7 a.u. |
| 2'F-ANA at 1 4 6 8 10 13 14 | 65.4 a.u. |
| 2'F-ANA at 3 4 5 6 7 8 10 11 12 15 | 65.4 a.u. |

Study 2
Target: RNA binding protein fox-1 homolog 2, RRM domain, GST-SBP tag (RBFOX2, Homo sapiens, UniProt O43251-10, residues 100-194)
Method: RNA Bind-n-Seq
Form: RNA
Medium: in vitro
Tested at: 365 nM
Notes: natural RNA segment, single round, ends assumed
Reference: no-protein control
Reading: higher = stronger binding
All sequences stand within: GGGAGUUCUACAGUCCGACGAUC … UGGAAUUCUCGGGUGCCAA
Residues (chain): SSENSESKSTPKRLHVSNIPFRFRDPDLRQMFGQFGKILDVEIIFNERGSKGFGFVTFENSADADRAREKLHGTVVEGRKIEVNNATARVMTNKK
| Sequence | RBNS enrichment (R) |
| --- | --- |
| UUGUAUUUGUUUUAAGAAACAUUGGUUCCUAUGUAUUUUAGCAUUUUUGGUGAUUUCAAUUGACUUUGUUUCUUUUAGGUACUGUUUUUAUUGUUUUACUUAGAAUAUUA | 0.542 |
| UUGCUUUCAUAGCAUCUCAGACUACUUGGAACUCCAAGGACUGCCUAACUAAAGUACUUUCACAAACACUAACAUUCAGAAGGAUGUUGAGAAAGCAAGAUCUAAUCUGA | 0.433 |
| GGGCCACAGGGUCAGAUGAGGGCUGCCUUUCGCUGCUGUGAACACUUACAGUACACCUGACUUGGAAGACCCUUUUGAGUUCAAGGCAGAGUGUGCAAUGUUGAAAUGGA | 0.35 |
| CCGCAUCUUUCUCUCUCCUCCAAAUGACAAAGUUUGGGGAAUUUUUGAAUUUUCCUAGCAUCGCCCUUGUGCUCAUCAGGUAAUCUGCUAAGGAGGAAAAAAGAAAAGAA | 0.567 |
| GUGUCCUGGCCAGCCCCCAAAUGGCAUUCUAGUGCACAAAUCAUAGGAUGAGAGUUAUACUCCUGUUGUCAAGGGAGUAUUGUGUGGUAUGUUCGGGGCAUAUUGAACAA | 1.52 |
| GGACGCCUUCCCCGCCCUCGAGGCUUCCCGGCUCUCAGAGGCUCCUUUUUUCUCUCCUGCUCCAGGCCUCAGCUCCAGUCCGCUUCGGUUAUUGACCUCCUGGGUCCUAC | 0.41 |
| GAGUCCCAAGAGUCCAGGUUAGUUGACUCUGUUGGUCUUCCUGUGGAGUUCCUAUCCCCUUUGAGGCUUACAAUCUUUCCUCCUUUUCUUCCAUAAGAGUUCCCAAGCUC | 0.587 |
| ACAGACGGACUUGGGUUAAGGGAAUGGGGACGACAGCUUUGGUGCUAAGUUAAUCAGAAAUUGCGAGCAUGCACAGUGGUAUGCCAGCCUGGGUGAUGCUUUCCUAGGAG | 6.97 |

Study 3
Target: Interferon regulatory factor 5, full length, phosphomimetic (IRF5, Homo sapiens, UniProt Q13568-2, residues 1-514, S451D/S453D/S456D/S462D)
Method: protein-binding microarray
Form: double-stranded DNA, one strand shown
Medium: in vitro
Tested at: 940 nM top
Notes: 60-bp whole probe
With: salmon DNA 0.4 mg/ml
Reference: random background probes
Reading: higher = stronger binding
All sequences stand within: GCCTAGCAC … GTCTTGATTCGCTTGACGCTGCTG
| Sequence | fitted relative affinity [z-score] |
| --- | --- |
| TTAGATCTCAGAATCGATTAGTGCTAG | 0.25 |
| GACGGATTGGGTATCGGGACGTGCTAG | 1.33 |
| GACGGTGTCCTTCTCCTGACGTGCTAG | -0.0111 |
| TTAGTACTGGGTCTCGGTTAGTGCTAG | 1.42 |
| GACGATTCCAGCTTCGAGACGTGCTAG | -0.177 |
| TTAGATATCAGGCTCGATTAGTGCTAG | 0.0171 |
| TCACATTTTCATTTTGTACTGTGCTAG | 1.36 |
| TTTGGTTTCGGGTTTCGGTTAGTGCTA | 13.8 |
| TTAGATTTTAGTTTCGATTAGTGCTAG | 10.1 |
| GTCGGTATCCTTTTCCTGACGTGCTAG | 2.02 |
| TTAGATATCGGTATCGATTAGTGCTAG | 5.06 |
| TACCTTAGGTTTTCTGGTTCCGTGCTA | 0.255 |
| TTAGGAATCGGTATCGGTTAGTGCTAG | 5.78 |

Study 4
Target: Sal-like protein 4, full length isoform B (SALL4, Homo sapiens, UniProt Q9UJQ4-2, residues 1-616)
Method: universal PBM
Form: double-stranded DNA, one strand shown
Medium: in vitro
Tested at: not given
Notes: 8-mer, flanks averaged, mean of replicates
Reading: higher = stronger binding
| Sequence | E-score |
| --- | --- |
| ACTAGCCC | -0.125 |
| CCGCAGCA | -0.168 |
| ATTACGCG | 0.152 |
| AGTAGACA | 0.0591 |
| CCCTCACC | -0.278 |
| GTCAGGAC | -0.215 |
| ATGTACCC | -0.0748 |
| GGGATCCA | -0.161 |
| GATCTCAC | -0.0654 |
| CACGAGCA | -0.181 |
| ACTAAATG | 0.203 |
| AGTGGAAG | -0.16 |
| ATTCCGGA | 0.0956 |
| ACAGGGGT | -0.114 |
| CGTCCTAG | -0.108 |
| GACTGGGA | -0.15 |
| CATCATTC | 0.0111 |
| AGGTGCAG | -0.188 |

Repeated from above (study 4):
| Sequence | E-score |
| --- | --- |
| AGGTGCAG | -0.188 |
| CGTCCTAG | -0.108 |
| ATTACGCG | 0.152 |
